Published values collected from several papers.
Every numbered part comes from another study and shows a few of its results, in no order. Changes are numbered by the printed parent chain.

Set 1
Target: CCND3, cyclin fold, Cln2 fusion (human)
Method: yeast growth competition, sequencing
Matrix: yeast
Notes: weak parent motif
Relative to: not given
Direction: higher = stronger binding
Quantity: normalised enrichment score
Parent: MASTL docking peptide (human); PMIAKNLMCELDE; partner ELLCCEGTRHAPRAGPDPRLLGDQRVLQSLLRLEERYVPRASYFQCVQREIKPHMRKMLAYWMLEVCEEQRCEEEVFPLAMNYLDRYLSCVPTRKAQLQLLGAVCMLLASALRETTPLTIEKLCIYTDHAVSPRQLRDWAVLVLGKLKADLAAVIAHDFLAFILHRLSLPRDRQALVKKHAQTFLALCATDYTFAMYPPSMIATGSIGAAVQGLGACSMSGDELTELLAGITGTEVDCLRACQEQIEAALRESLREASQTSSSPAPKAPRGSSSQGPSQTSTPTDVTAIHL
E10I: 0.147
M8F: -0.303
D12F: 0.237
M2K: 1.05
L7W: 0.0571

Set 2
Target: Histone acetyltransferase KAT6A, winged helix 2, GST fusion (KAT6A, Homo sapiens, UniProt Q92794, residues 85-181)
Method: protein binding microarray
Form: double-stranded DNA, one strand shown
Matrix: in vitro
Concentration: not given
Notes: 8-mer, flanks averaged, mean of 2 arrays, mostly near background
Relative to: not given
Direction: higher = stronger binding
Quantity: E-score
Target sequence (chain): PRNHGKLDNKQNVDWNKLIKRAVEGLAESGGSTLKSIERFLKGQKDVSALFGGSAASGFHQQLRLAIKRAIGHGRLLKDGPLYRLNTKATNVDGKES
AACCTCTA: -0.0811
TGAATAAA: 0.049
CGGATTGC: 0.171
CAACTCAC: 0.134
AGTAATAC: -0.083
AGTCCAGG: -0.0725
GACAGCAA: 0.104
GACTTATC: -0.306

Set 3
Target: MAFG, bZIP domain (human)
Method: DHFR protein complementation
Matrix: yeast
Notes: single substitutions, most at no-binding floor
Relative to: wild-type JUN-FOS pair
Direction: higher = stronger binding
Quantity: binding fitness
Parent: JUN, bZIP domain (human); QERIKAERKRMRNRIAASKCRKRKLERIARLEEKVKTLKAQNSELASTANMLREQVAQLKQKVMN; partner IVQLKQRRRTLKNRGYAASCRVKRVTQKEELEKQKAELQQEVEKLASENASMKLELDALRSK
A29I: -1.17 natural log
A49S: -1.28 natural log
A29N: -1.5 natural log
S47D: -1.55 natural log
T48Y: -1.13 natural log
A57W: -1.43 natural log

Other studies, line by line
PhoQ, residues 284 288 289 292 302 303 ASVMEA — fold induction (PhoP, residues 12 14 15 18 19 LHTVM (Escherichia coli, UniProt P23836); Sort-seq, item: YFP reporter; E. coli; PhoQ-PhoP variant library, together with: 10 µM Mg2+; relative to: high Mg2+ state, higher = stronger signaling): 10.8
